Results collected from several papers.
A part holds a random share of what one study measured.
Chain of UniProt P07333 (whole entry, looked up): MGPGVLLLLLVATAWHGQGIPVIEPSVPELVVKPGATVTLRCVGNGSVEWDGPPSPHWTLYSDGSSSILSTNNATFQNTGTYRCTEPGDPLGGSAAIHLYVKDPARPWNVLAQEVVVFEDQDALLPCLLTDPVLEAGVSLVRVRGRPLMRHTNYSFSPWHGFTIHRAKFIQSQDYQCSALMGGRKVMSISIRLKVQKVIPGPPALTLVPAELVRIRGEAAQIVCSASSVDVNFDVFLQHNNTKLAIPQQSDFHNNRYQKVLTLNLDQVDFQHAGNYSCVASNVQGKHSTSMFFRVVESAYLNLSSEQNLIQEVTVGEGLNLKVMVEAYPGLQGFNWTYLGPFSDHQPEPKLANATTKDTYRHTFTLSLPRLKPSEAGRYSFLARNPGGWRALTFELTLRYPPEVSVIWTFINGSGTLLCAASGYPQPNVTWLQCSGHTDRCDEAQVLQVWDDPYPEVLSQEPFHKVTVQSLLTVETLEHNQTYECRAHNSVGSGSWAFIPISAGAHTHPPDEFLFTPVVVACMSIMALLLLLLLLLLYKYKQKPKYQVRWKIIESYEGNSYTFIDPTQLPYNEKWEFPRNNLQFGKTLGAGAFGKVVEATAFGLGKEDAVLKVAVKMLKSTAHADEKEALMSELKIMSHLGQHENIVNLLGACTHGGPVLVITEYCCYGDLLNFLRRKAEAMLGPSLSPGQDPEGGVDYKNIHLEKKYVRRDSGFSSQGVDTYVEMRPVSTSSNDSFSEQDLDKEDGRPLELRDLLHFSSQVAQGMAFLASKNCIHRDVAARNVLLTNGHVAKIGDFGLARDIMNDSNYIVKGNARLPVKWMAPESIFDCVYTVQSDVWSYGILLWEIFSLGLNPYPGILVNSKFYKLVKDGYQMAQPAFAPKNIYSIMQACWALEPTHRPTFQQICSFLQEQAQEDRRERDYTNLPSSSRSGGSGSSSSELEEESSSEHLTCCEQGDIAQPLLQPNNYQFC

Series 1
Target: Ras GTPase-activating protein-binding protein 1, C-terminal RGG region (G3BP1, Homo sapiens, UniProt Q13283)
Chain of UniProt Q13283 (whole entry, looked up): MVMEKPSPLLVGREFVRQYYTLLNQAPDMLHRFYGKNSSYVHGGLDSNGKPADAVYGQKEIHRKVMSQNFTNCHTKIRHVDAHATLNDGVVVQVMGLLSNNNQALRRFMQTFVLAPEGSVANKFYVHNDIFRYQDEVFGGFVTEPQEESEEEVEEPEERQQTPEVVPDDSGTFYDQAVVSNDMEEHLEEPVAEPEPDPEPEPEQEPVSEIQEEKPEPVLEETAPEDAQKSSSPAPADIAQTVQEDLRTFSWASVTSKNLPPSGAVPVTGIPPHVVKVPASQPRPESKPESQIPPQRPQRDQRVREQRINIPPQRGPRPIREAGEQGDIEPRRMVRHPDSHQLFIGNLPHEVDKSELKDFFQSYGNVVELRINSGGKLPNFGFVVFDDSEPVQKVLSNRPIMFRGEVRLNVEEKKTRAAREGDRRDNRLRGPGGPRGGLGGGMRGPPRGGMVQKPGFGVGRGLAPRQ
Technique: RNA Bind-n-Seq
Form: RNA
Sample: in vitro
Concentration: 1 µM
Notes: whole 134-nt RNA, ends assumed
Added: 150 mM KCl
Baseline: input library
Reading: higher = stronger binding
Shared flanks, not repeated: GGGAGUUCUACAGUCCGACGAUC … UGGAAUUCUCGGGUGUCAAGG
`UCAAGUCCUGUGCUACACAUCGUAUGUACCGAAUCGGGGAAGGGGAAGGGGAAGGAAAGUAUUAUGUUACGCCGUUCGGAUCUGCACUUC` gave a log2 enrichment of -0.486.
For `UGGCCCUGGUGGCUUGCGGGGAGGAAGAGGUGGCCUCAUGGAUCGUGGUGGUCCCGGUGGAAUGUUCAGAGGUGGCCGUGGUGGAGACAG`, the log2 enrichment was 2.11.
`UGGGAGGUGGAUUUUGUUUAUUUUUUUAGCUCACUUCCAGGGGUGGGAAUUUUUUUUUAAUAUGUGUCAUGAAUAAAGUUGUUUUUGAAA` has a log2 enrichment of 3.34.
`CCUCAAGUCCUGUGCUACACAUCGUAUGUACCGAAUCGGGAGGGAGGGUGGGAAAGUAUUAUGUUACGCCGUUCGGAUCUGCACUUCCAG` has a log2 enrichment of 1.97.
For `GCAGGAAGUAAAAACAAAUGGAAAUGCUUCGGAUAGUGGCAGGGGUGGGGGUUGCUAAGGAAAGGGUAAAAUGGGAGUGGGUAAAGAGUU`, the log2 enrichment was 1.6.
`UCUCCACCUGCUGAGCUCCCCAGUUUGAGGCGGAGCACACGCCAAAAGACCACGGGCUCCUGUGCUAGUACCAGGUAAUUUGUUUUUUUU` has a log2 enrichment of -0.534.
The log2 enrichment of `GAAAAUUUCUCAGUUCUUAAGAAUGCUUGCUGUGGGUAUAGUGCAGGUAUAUUGAAAGGAAUUUUUUUCUUGCAGCGGGAAAGAGACAUG` is reported as -1.61.
`GCAGGAAGUAAAAACAAAUGGAAAUGCUUCGGAUAGUGGCAGGGGUGGGGGUUGCUAAGGAAAGGGUGGGAUGGGACUGGGUAAAGAGUU` gave a log2 enrichment of 1.65.

Series 2
Target: Sal-like protein 4, full length isoform B (SALL4, Homo sapiens, UniProt Q9UJQ4-2, residues 1-616)
Technique: universal PBM
Form: double-stranded DNA, one strand shown
Sample: in vitro
Concentration: not given
Notes: 8-mer, flanks averaged, mean of replicates
Reading: higher = stronger binding
`ACTATAGT` has an E-score of 0.305.
For `AGTCAGTC`, the E-score was -0.191.
The E-score of `CCTCGAAG` is reported as -0.187.
With `AAGCTATA` the E-score was 0.276.
The E-score of `AGGGACGG` is reported as -0.349.
`GGCTGGAC` gave an E-score of -0.284.
`ATGTGCAA` has an E-score of 0.131.
For `CTCACAGA`, the E-score was 0.0687.

Series 3
Target: Sox-I, HMG box (Salpingoeca helianthica)
Technique: Spec-seq
Form: double-stranded DNA, one strand shown
Sample: in vitro
Concentration: not given
Notes: whole probe, mean of replicates
Baseline: not given
Reading: lower = stronger binding
Shared flanks, not repeated: GAGTCGTCTCGTCAGCAC … CCGTAGAGCACTCAGGTC
Residues (chain): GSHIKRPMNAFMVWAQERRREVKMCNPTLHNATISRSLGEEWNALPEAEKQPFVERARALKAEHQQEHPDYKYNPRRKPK
`CATTAGT` — result for “relative binding energy”: 0.795 ln ratio.
Under “relative binding energy”, `CATGATG` is recorded as 0.813 ln ratio.
`CATTTCA`: “relative binding energy” 0.777 ln ratio.
`AAGGGTT`: “relative binding energy” -0.524 ln ratio.
`CATGATC` — result for “relative binding energy”: 0.578 ln ratio.
For `GCAAGTT`, “relative binding energy” read 0.56 ln ratio.
`CATAGCT`: “relative binding energy” 0.375 ln ratio.
Under “relative binding energy”, `CATGTGA` is recorded as 1.03 ln ratio.

Other studies, line by line
`O=C1c2ccccc2-c2nc3nnnn3nc21` has a remaining activity of 11.6% (Macrophage colony-stimulating factor 1 receptor (CSF1R, Homo sapiens, UniProt P07333); enzyme activity, inhibitor; 0.5 µM; baseline: control).

Excerpt of the above (series 1):
`GCAGGAAGUAAAAACAAAUGGAAAUGCUUCGGAUAGUGGCAGGGGUGGGGGUUGCUAAGGAAAGGGUGGGAUGGGACUGGGUAAAGAGUU` gave a log2 enrichment of 1.65.
For `GCAGGAAGUAAAAACAAAUGGAAAUGCUUCGGAUAGUGGCAGGGGUGGGGGUUGCUAAGGAAAGGGUAAAAUGGGAGUGGGUAAAGAGUU`, the log2 enrichment was 1.6.
`UCAAGUCCUGUGCUACACAUCGUAUGUACCGAAUCGGGGAAGGGGAAGGGGAAGGAAAGUAUUAUGUUACGCCGUUCGGAUCUGCACUUC` gave a log2 enrichment of -0.486.
`UCUCCACCUGCUGAGCUCCCCAGUUUGAGGCGGAGCACACGCCAAAAGACCACGGGCUCCUGUGCUAGUACCAGGUAAUUUGUUUUUUUU` has a log2 enrichment of -0.534.
